Results pooled from the literature.
Compare with care: the assays were run in different laboratories. “And” joins repeats or separate records; there may be more than shown. ± gives the spread as reported. Ends that are not written are not given here.
HCRTR2 del254-292/I293E/K294R/L160H/M161K/Q254E: Orexin receptor type 2 (HCRTR2, Homo sapiens, UniProt O43614, del254-292/I293E/K294R/L160H/M161K/Q254E)
Chain of UniProt O43614 (whole entry, unmodified, looked up): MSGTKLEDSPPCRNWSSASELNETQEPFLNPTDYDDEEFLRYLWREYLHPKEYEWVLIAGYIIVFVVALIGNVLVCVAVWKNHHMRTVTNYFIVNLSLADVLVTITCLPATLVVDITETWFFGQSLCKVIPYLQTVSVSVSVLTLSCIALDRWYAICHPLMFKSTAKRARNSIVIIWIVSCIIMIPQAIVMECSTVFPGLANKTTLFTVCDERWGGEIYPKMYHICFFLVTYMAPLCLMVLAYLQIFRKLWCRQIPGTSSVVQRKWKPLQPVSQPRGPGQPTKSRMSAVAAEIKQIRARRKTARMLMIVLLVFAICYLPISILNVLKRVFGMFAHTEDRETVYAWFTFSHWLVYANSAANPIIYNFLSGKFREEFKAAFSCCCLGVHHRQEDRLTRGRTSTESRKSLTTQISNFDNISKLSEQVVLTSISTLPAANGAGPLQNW
B1: disulfide; chain VCSCRLVFCRRTELRVGNCLIGGVSFTYCCTRV (disulfide (positions not given here))
Chain of UniProt P34897 (whole entry, unmodified, looked up): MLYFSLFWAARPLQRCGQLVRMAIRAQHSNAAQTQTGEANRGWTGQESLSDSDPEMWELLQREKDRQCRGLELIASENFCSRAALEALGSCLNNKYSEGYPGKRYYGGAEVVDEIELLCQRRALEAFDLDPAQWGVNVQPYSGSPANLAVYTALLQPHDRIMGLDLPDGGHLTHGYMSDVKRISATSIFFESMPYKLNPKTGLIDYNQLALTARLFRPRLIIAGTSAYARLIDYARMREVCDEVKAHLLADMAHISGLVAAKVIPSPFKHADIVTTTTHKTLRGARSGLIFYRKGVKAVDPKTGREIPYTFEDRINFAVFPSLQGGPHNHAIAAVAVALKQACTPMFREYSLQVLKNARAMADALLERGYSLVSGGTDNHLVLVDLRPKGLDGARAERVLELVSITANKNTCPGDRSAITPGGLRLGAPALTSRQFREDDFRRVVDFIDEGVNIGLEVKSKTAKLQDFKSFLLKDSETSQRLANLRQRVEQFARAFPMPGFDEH
Chain of UniProt P09616 (whole entry, looked up): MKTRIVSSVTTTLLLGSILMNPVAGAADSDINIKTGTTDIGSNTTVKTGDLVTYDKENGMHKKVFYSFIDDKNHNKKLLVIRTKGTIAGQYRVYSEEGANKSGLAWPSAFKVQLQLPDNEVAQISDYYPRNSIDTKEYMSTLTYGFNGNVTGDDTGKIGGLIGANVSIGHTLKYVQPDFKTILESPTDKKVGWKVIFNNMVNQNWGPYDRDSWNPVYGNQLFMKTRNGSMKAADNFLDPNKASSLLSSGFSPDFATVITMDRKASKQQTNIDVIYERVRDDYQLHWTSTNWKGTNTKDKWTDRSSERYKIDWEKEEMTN

Substance | target or system | assay | test system | conditions | scale | measurement | result
insulin human | – | measured: AKT3 mRNA | uninfected mouse, brain | i.p., dose not given | baseline: PBS | fold change | 1.83
KRRRRGLPRLGMVTGY | Streptococcus iniae | bacterial survival, plate count | peptide | 20 µM, 4 h, room temperature | baseline: untreated control | bacterial killing | 44.5%
KKGLGGKLLACKG | Candida albicans | growth | peptide, ATCC 10231, potato dextrose broth | 128 µM, 30 °C | – | inhibition | 0 fraction (0-1)
ILPWHWPWWPWRR | Escherichia coli | – | peptide, K-12 MG1655, Mueller-Hinton broth | concentration not given, 37 °C, unit not given | baseline: no peptide | growth rate | 1.03
Polymyxin B | Pseudomonas aeruginosa | broth microdilution, MH medium | KCCM 11328 | 16 h, 37 °C, growth inhibition over 99% | – | MIC | 1 µM
tetrahydrofolate | Serine hydroxymethyltransferase, mitochondrial (SHMT2, Homo sapiens, UniProt P34897, Y105F) | enzyme activity, substrate, MTHFD2-coupled NADH fluorescence | – | Y105F mutant | – | Vmax | 85 fluorescence units/s
vancomycin | Enterococcus faecalis | bacterial growth | – | – | – | IC50 | 800 ± 100 nM
amyloid β-peptide (1–28) | – | substrate, LC-MS | phosphate buffer | 10 µM, 4 h, pH 7.4, 25 °C, added: MINP(β1–14) 1 equiv | – | remaining substrate | 75.4 ± 2.6%
ILSAAWSGITSLF | Escherichia coli | bacterial growth, OD600 growth curve | peptide, K12 MG1655, MHB broth | 40 µM, 24 h, 37 °C | baseline: no peptide control | relative growth rate | 0.583
KKRRRGLSRFRMGRGY | Vibrio harveyi | bacterial survival, plate count | peptide | 20 µM, 4 h, room temperature | baseline: untreated control | bacterial killing | 91.3%
B1 | Acinetobacter baumannii | crystal violet staining | 19606 | concentration not given | – | biofilm formation | 84.7% and 96.2% and 119% and 120% and 110% and 83.7% and 87% and 69.1%
colistin | Pseudomonas aeruginosa | – | 1191191, multidrug-resistant | – | – | MIC | 0.5 µg/mL
thiostrepton | Enterococcus faecalis | – | vancomycin-resistant | – | – | MIC | 0.06 µg/mL
bleomycin sulfate | human coronavirus OC43 | viral replication | MRC-5 | over 10 dose points | – | maximum inhibition | 0%
LLGKKLLKGAKGG | Candida albicans | growth | peptide, ATCC 10231, potato dextrose broth | 128 µM, 30 °C | – | inhibition | 0 fraction (0-1)
RSKRGNRYQRL | Streptococcus iniae | bacterial survival, plate count | peptide | 20 µM, 4 h, room temperature | baseline: untreated control | bacterial killing | 70.4%
ILSAIWSGITSLI | Escherichia coli | bacterial growth, OD600 growth curve | peptide, K12 MG1655, MHB broth | 40 µM, 24 h, 37 °C | baseline: no peptide control | relative growth rate | 0.534
glucagon | – | isotope dilution | human, non-diabetic | baseline, no infusion | – | leg extraction | 41% and 40.6%
hexaarginine | PorA peptide pore | peptide binding, planar bilayer single-channel recording | – | 0.5 µM, pH 7.4, +25 mV, trans side, 150 mM KCl | – | kon | 15.3 ± 2 µM⁻¹ s⁻¹
DPDPE | – | RP-HPLC | HALO C18 column | 25 µM, formic acid/methanol, 25 min gradient | – | retention time | 15.9 min
Ro 31-8220 | infectious bursal disease virus | viral infection | – | concentration not given | – | VP2 protein level | decreased
RWRYRRRGYLAMG | Streptococcus iniae | bacterial survival, plate count | peptide | 20 µM, 4 h, room temperature | baseline: untreated control | bacterial killing | 26.6%
Polymyxin B | Klebsiella pneumoniae | broth microdilution | K1 clinical isolate | 20 h | – | MIC | 4 µg/mL
orexin-B | HCRTR2 del254-292/I293E/K294R/L160H/M161K/Q254E | sensor fluorescence, fluorescence imaging | HEK293T | 10 µM, added: OXB 10 µM | baseline: baseline | maximal ΔF/F0 | 1370% and 651% and 975% and 734% and 900% and 967%

Substance | target or system | assay | test system | conditions | scale | measurement | result
RRHQRSRRPYHRMPNP | Streptococcus iniae | bacterial survival, plate count | peptide | 20 µM, 4 h, room temperature | baseline: untreated control | bacterial killing | 25.2%
brain natriuretic peptide | hly (Staphylococcus aureus, UniProt P09616) | nanopore sensing | fetal bovine serum, NaCl 1 M | 5 µM, pH 7.4, +100 mV | – | dwell time | 0.38 ± 0.11 ms
ILPWAWPWWPWRR | Escherichia coli | – | peptide, K-12 MG1655, Mueller-Hinton broth | concentration not given, 37 °C, unit not given | baseline: no peptide | growth rate | 0.00123
Polymyxin B | Klebsiella pneumoniae | broth microdilution | parental, KPC-33 | – | – | MIC | 32 µg/mL
MKRRNRFSSLKLNRGY | Streptococcus iniae | bacterial survival, plate count | peptide | 20 µM, 4 h, room temperature | baseline: untreated control | bacterial killing | 48%
ILPWKWPWWPWRR (C-amide) | Escherichia coli | – | peptide, K-12 MG1655 | concentration not given, 24 h, 37 °C, unit not given | baseline: no peptide | growth rate | 0.125
aprotinin | Aspergillus fumigatus | Alamar blue | – | 20 µM | – | metabolic activity | 100%
nonaarginine | PorA peptide pore | peptide binding, planar bilayer single-channel recording | – | 0.5 µM, pH 7.4, -25 mV, cis side, 150 mM KCl | – | kon | 28.5 ± 3 µM⁻¹ s⁻¹
Teicoplanin A2-2 | Enterococcus faecium | – | VanA vancomycin-resistant | – | – | MIC | > 32 µg/mL
aspterric acid | Arabidopsis thaliana | – | – | foliar spray, 200 µg/mL, 20 days | – | fresh weight inhibition | 56.3% and 56.6% and 55%
Avermectin B1 | Drosophila melanogaster | food ingestion, fluorescein feeding | first instar larvae | 40 µg/mL | baseline: solvent-treated | relative fluorescence | -61.6%
neuropeptide FF | HCRTR2 del254-292/I293E/K294R/L160H/M161K/Q254E | sensor fluorescence, fluorescence imaging | HEK293T | concentration not given, unit not given | baseline: baseline | ΔF/F0 | -1.1 and -2.88 and -3.06 and 2.32 and -2.12
Polymyxin B | Pseudomonas aeruginosa | – | NCTC 13921, neutropenic CD-1 mouse, thigh infection, thigh | 25 mg/kg every 6 h, 26 h post infection | – | bacterial burden | 2.32 log10 CFU/g and 2.3 log10 CFU/g and 2.35 log10 CFU/g and 2.47 log10 CFU/g
HVLVMSATRR | – | – | peptide, C57BL/6J mice, male, serum | subcutaneous osmotic pump, 3 mg/kg/day peptide basis, 8 weeks | – | calcium | 9.7 mg/dL and 8.5 mg/dL and 9.1 mg/dL and 9.6 mg/dL
Ro 48-8071 | human coronavirus OC43 | virus-induced cell death | MRC-5 | – | – | maximum inhibition | 21.1%
Polymyxin B | Klebsiella pneumoniae | DCFH-DA fluorescence | ATCC 700603 | 2 × MIC | higher = more ROS | ROS level | 328 a.u.
VRRRRVSRFGRGRGY | Pseudomonas fluorescens | bacterial survival, plate count | peptide | 20 µM, 4 h, room temperature | baseline: untreated control | bacterial killing | 57%
HNP1 R15A | Acinetobacter baumannii | crystal violet staining | 19606 | concentration not given | – | biofilm formation | 345% and 362% and 419%
KLKGLLGGKKKLK | Candida albicans | growth | peptide, ATCC 10231, potato dextrose broth | 128 µM, 30 °C | – | inhibition | 0 fraction (0-1)
heparin sodium | – | – | healthy Chinese adult volunteers | continuous intravenous infusion, 8 IU/kg/h, 5 days | – | drug-related abnormal liver function | 75%
caspofungin | Aspergillus fumigatus | – | A1163 | – | – | MEC | 0.25 µg/mL
ILSAAWSGIKSLG | Escherichia coli | bacterial growth, OD600 growth curve | peptide, K12 MG1655, MHB broth | 40 µM, 24 h, 37 °C | baseline: no peptide control | relative growth rate | 0.747
colistin | Aspergillus fumigatus | – | solid minimal medium | 100 µM, 4 d | baseline: untreated control | radial growth ratio | 0.796 and 0.778
tunicamycin | Staphylococcus aureus | broth microdilution, EUCAST | ATCC 29213 | 18 to 24 h, 37 °C | – | MIC | > 64 µg/mL
